Published values from different studies.
Compare with care: the assays were run in different laboratories. ± marks the error that the study gave.
CALCR: Calcitonin receptor (CALCR, Homo sapiens, UniProt P30988)

With CCCC[C@H](NC(=O)COCCOCCNC(=O)CN1CCN(CC(=O)O)CCN(CC(=O)O)CC1)C(=O)N[C@H]1CC(=O)NCCCC[C@@H](C(N)=O)NC(=O)[C@H](Cc2c[nH]c3ccccc23)NC(=O)[C@H](CCCNC(=N)N)NC(=O)[C@@H](Cc2ccccc2)NC(=O)[C@H](Cc2c[nH]cn2)NC1=O [technetium-99m labelled] the tissue uptake was 3.71 ± 1.43 %ID/g (C57 mouse, lung; intravenous, 0.037 MBq, 0.5 h).
CSCC[C@H](NC(=O)[C@H](CC(C)C)NC(=O)CNC(=O)[C@H](Cc1ccccc1)NC(=O)[C@H](Cc1ccccc1)NC(=O)[C@@H](N)CCC(N)=O)C(N)=O has an EC50 of 0.00126 µM (Substance-P receptor (TACR1, Homo sapiens, UniProt P25103); calcium mobilization, Fura-2).
NCCC(=O)O — result for Kd: “no binding” (Sodium- and chloride-dependent taurine transporter (SLC6A6, Homo sapiens, UniProt P31641, E406A)).
C=C(NC(=O)c1csc(-c2nc3c(cc2O)-c2nc(cs2)C(=O)NC(C(C)O)C(=O)NC(=C(C)OC)c2nc(cs2)C(=O)NC2c4nc(cs4)C(=O)NC(COC(=O)c4c5c6c(cccc6n4O)COC(=O)C(OC4CC(C)(O)C(N(C)C)C(C)O4)C2OC5)c2nc-3cs2)n1)C(N)=O (stereo not drawn) — result for “volume of distribution”: 1.16 L/kg (cynomolgus monkey, male, plasma; intravenous infusion, 1 mg/kg single dose).
The EC50 of NC1=NC(=O)[C@H](CC(=O)Nc2ccc(SC(F)F)cc2)S1 is reported as 12.9 ± 4.73 µM (Piezo-type mechanosensitive ion channel component 1 (Piezo1, Mus musculus, UniProt E2JF22); agonist).
CC[C@H](C)[C@@H](C(=O)N[C@@H](CC(C)C)C(=O)N[C@@H](CO)C(=O)N[C@@H](CO)C(=O)N[C@H](C(=O)N[C@@H](CCC(=O)O)C(=O)N[C@H](C(=O)NCC(=O)N[C@@H](CO)C(=O)N[C@@H](CC(N)=O)C(=O)N[C@H](C(=O)N1C[C@H](O)C[C@H]1C(N)=O)[C@@H](C)O)C(C)C)[C@@H](C)O)N(C)C(=O)[C@H](C)NC(=O)CN(C)C(=O)[C@H](Cc1ccccc1)NC(=O)[C@H](CO)NC(=O)[C@H](CO)NC(=O)[C@H](CCCNC(=N)N)NC(=O)[C@H](CCC(N)=O)NC(=O)[C@H](CC(C)C)NC(=O)[C@H](Cc1ccccc1)NC(=O)[C@H](Cc1c[nH]cn1)NC(=O)[C@H](C)NC(=O)[C@H](CC(C)C)NC(=O)[C@H](CCCNC(=N)N)NC(=O)[C@H](CCC(=O)O)NC(=O)[C@@H](NC(=O)[C@H](C)NC(=O)[C@@H]1CC(=O)NCCC[C@H](NC(=O)[C@H](CCCNC(=N)N)NC(=O)CC[C@H](NC(=O)CCCCCCCCCCCCCCCCCCC(=O)O)C(=O)O)C(=O)NCC(=O)N[C@@H]([C@@H](C)O)C(=O)N[C@@H](C)C(=O)N[C@@H]([C@@H](C)O)C(=O)N1)[C@@H](C)O has an EC50 of 0.0813 µM (CALCR; cAMP, agonist).
Cc1nn(-c2cccc(N)c2)c(=O)c2cnc(Nc3ccc(N4CCNCC4)cc3)nc12 has an IC50 of over 10 µM (Calcium/calmodulin-dependent protein kinase type IV (CAMK4, Homo sapiens, UniProt Q16566); SelectScreen kinase).
CC[C@H](C)[C@@H](C(=O)N[C@@H](CC(C)C)C(=O)N[C@@H](CO)C(=O)N[C@@H](CO)C(=O)N[C@H](C(=O)N[C@@H](CCC(=O)O)C(=O)N[C@H](C(=O)NCC(=O)N[C@@H](CO)C(=O)N[C@@H](CC(N)=O)C(=O)N[C@H](C(=O)N1C[C@H](O)C[C@H]1C(N)=O)[C@@H](C)O)C(C)C)[C@@H](C)O)N(C)C(=O)[C@H](C)NC(=O)CN(C)C(=O)[C@H](Cc1ccccc1)NC(=O)[C@H](CO)NC(=O)[C@H](CO)NC(=O)[C@H](CCCNC(=N)N)NC(=O)[C@H](CCC(N)=O)NC(=O)[C@H](CC(C)C)NC(=O)[C@H](Cc1ccccc1)NC(=O)[C@H](CCCC(=O)O)NC(=O)[C@H](C)NC(=O)[C@H](CC(C)C)NC(=O)[C@H](CCCNC(=N)N)NC(=O)[C@H](CCC(=O)O)NC(=O)[C@@H](NC(=O)[C@H](C)NC(=O)[C@@H]1CCCCNC(=O)C[C@H](NC(=O)[C@H](CCCNC(=N)N)NC(=O)CC[C@H](NC(=O)CCCCCCCCCCCCCCCCCCC(=O)O)C(=O)O)C(=O)NCC(=O)N[C@@H]([C@@H](C)O)C(=O)N[C@@H](C)C(=O)N[C@@H]([C@@H](C)O)C(=O)N1)[C@@H](C)O has an EC50 of 0.000316 µM (CALCR; cAMP, agonist).
O=Cc1ccc([N+](=O)[O-])c(OS(=O)(=O)c2ccc(Cl)cc2)c1 gave an EC50 of over 1000 µM (YWHAG/RELA, phospho-Ser45 p65 peptide (Homo sapiens, UniProt P61981+Q04206); ternary complex formation, stabilizer, fluorescence anisotropy).
For Cn1c(=O)n(C2CCC(=O)NC2=O)c2ccc(C3CCN(CC(=O)Nc4cccc(CS(=O)(=O)N5CC[C@H](Nc6cccc(-c7sc(C(=O)O)c(OCC(=O)O)c7Cl)c6)CC5(C)C)c4)CC3)cc21 (stereo partly drawn), the EC50 was over 10 µM (Serine/threonine-protein phosphatase 5 (Homo sapiens, UniProt P53041); phosphatase activity; added: DiFMUP substrate).
The EC50 of Cc1ncc(CNc2nc(N3CC(CCOc4cc(-c5scnc5C)ccc4CNC(=O)[C@@H]4C[C@@H](O)CN4C(=O)[C@@H](NC(=O)C4(F)CC4)C(C)(C)C)C3)nc(N3CCC[C@H]3Cn3ccnn3)n2)c(N)n1 is reported as 0.07 µM (VHL/BRD9, with Elongin B/C (Homo sapiens, UniProt P40337+Q9H8M2); ternary complex formation, AlphaScreen; added: 50 nM His-BRD9 and 20 nM biotin-VCB).
The EC50 of CC[C@H](C)[C@H](NC(=O)[C@@H]1CCCN1C(=O)CNC(=O)[C@H](Cc1ccccc1)NC(=O)[C@H](CC(N)=O)NC(=O)[C@H](CC(N)=O)NC(=O)[C@H](CO)NC(=O)[C@H](CO)NC(=O)[C@H](Cc1c[nH]cn1)NC(=O)[C@H](CCCNC(=N)N)NC(=O)[C@H](CC(C)C)NC(=O)[C@H](Cc1ccccc1)NC(=O)[C@H](CCC(=O)O)NC(=O)[C@H](C)NC(=O)[C@H](CC(C)C)NC(=O)[C@H](CCCNC(=N)N)NC(=O)[C@H](CCC(N)=O)NC(=O)[C@@H](NC(=O)[C@H](C)NC(=O)[C@@H]1CSSC[C@H](NC(=O)[C@H](CCCCN)NC(=O)CC[C@H](NC(=O)CCCCCCCCCCCCCCCCCCC(=O)O)C(=O)O)C(=O)N[C@@H](CC(N)=O)C(=O)N[C@@H]([C@@H](C)O)C(=O)N[C@@H](C)C(=O)N[C@@H]([C@@H](C)O)C(=O)N1)[C@@H](C)O)C(=O)N[C@@H](CC(C)C)C(=O)N1CCC[C@H]1C(=O)N1CCC[C@H]1C(=O)N[C@H](C(=O)N[C@@H](CC(N)=O)C(=O)N[C@H](C(=O)NCC(=O)N[C@@H](CO)C(=O)N[C@@H](CC(N)=O)C(=O)N[C@H](C(=O)N[C@@H](Cc1ccc(O)cc1)C(N)=O)[C@@H](C)O)C(C)C)[C@@H](C)O is reported as 6.31e-06 µM (Calcitonin receptor, isoform a (CALCR, Homo sapiens, UniProt P30988); reporter gene, agonist, CRE-luciferase; BHK expressing CTR; 3 h).
For Cc1ncsc1-c1ccc(CNC(=O)[C@@H]2C[C@@H](O)CN2C(=O)[C@@H](NC(=O)C2(F)CC2)C(C)(C)C)c(OCCC2CN(c3nc(NCC(C)(C)C4(O)CCOC4)nc(N4CCC[C@H]4Cn4ccnn4)n3)C2)c1 (stereo partly drawn), the EC50 was 0.517 µM (VHL/BRD9 (Homo sapiens, UniProt P40337+Q9H8M2); ternary complex formation, NanoBiT; HEK293T; 2 h, added: MLN4924 2 µM).
CC[C@H](C)[C@@H](C(=O)N[C@@H](CC(C)C)C(=O)N[C@@H](CO)C(=O)N[C@@H](CO)C(=O)N[C@H](C(=O)N[C@@H](CCC(=O)O)C(=O)N[C@H](C(=O)NCC(=O)N[C@@H](CO)C(=O)NCC(=O)N[C@H](C(=O)N1C[C@H](O)C[C@H]1C(N)=O)[C@@H](C)O)C(C)C)[C@@H](C)O)N(C)C(=O)[C@H](C)NC(=O)CN(C)C(=O)[C@H](Cc1ccccc1)NC(=O)[C@H](CO)NC(=O)[C@H](CO)NC(=O)[C@H](CCCNC(=N)N)NC(=O)[C@H](CCC(N)=O)NC(=O)[C@H](CC(C)C)NC(=O)[C@H](Cc1ccccc1)NC(=O)[C@H](Cc1c[nH]cn1)NC(=O)[C@H](C)NC(=O)[C@H](CC(C)C)NC(=O)[C@H](CCCNC(=N)N)NC(=O)[C@H](CCC(N)=O)NC(=O)[C@@H](NC(=O)[C@H](C)NC(=O)[C@@H]1CSSC[C@H](NC(=O)[C@H](CCCNC(=N)N)NC(=O)CC[C@H](NC(=O)CCCCCCCCCCCCCCCCCCC(=O)O)C(=O)O)C(=O)N[C@@H](CC(N)=O)C(=O)N[C@@H]([C@@H](C)O)C(=O)N[C@@H](C)C(=O)N[C@@H]([C@@H](C)O)C(=O)N1)[C@@H](C)O gave an EC50 of 0.000166 µM (CALCR; cAMP, agonist).
COC1CN([C@H]2CC[C@H]([C@@]3(C)Oc4c(Cl)cc(C(=O)NCc5c(SC)cc(C)[nH]c5=O)c(C)c4O3)CC2)C1 — result for “log2 fold change”: 5.24 (RNA-seq, measured: SULT1A2 mouse homolog; mouse, HT-1376 xenograft, whole blood; dose not given; relative to: vehicle).

Repeated from above:
For Cn1c(=O)n(C2CCC(=O)NC2=O)c2ccc(C3CCN(CC(=O)Nc4cccc(CS(=O)(=O)N5CC[C@H](Nc6cccc(-c7sc(C(=O)O)c(OCC(=O)O)c7Cl)c6)CC5(C)C)c4)CC3)cc21 (stereo partly drawn), the EC50 was over 10 µM (Serine/threonine-protein phosphatase 5 (Homo sapiens, UniProt P53041); phosphatase activity; added: DiFMUP substrate).
The EC50 of Cc1ncc(CNc2nc(N3CC(CCOc4cc(-c5scnc5C)ccc4CNC(=O)[C@@H]4C[C@@H](O)CN4C(=O)[C@@H](NC(=O)C4(F)CC4)C(C)(C)C)C3)nc(N3CCC[C@H]3Cn3ccnn3)n2)c(N)n1 is reported as 0.07 µM (VHL/BRD9, with Elongin B/C (Homo sapiens, UniProt P40337+Q9H8M2); ternary complex formation, AlphaScreen; added: 50 nM His-BRD9 and 20 nM biotin-VCB).
